# Results gathered from unrelated publications.
# Numbered parts are unrelated; each lists some results of a single study. Positions count from the first letter of the parent shown.

# Series 1 — technique: RNA Bind-n-Seq; molecule type: RNA; sample: in vitro; concentration: not given; baseline: input RNA pool; direction: higher = stronger binding
# Target: RING finger protein unkempt homolog, zinc fingers 1-6, GST-SBP tag (UNK, Homo sapiens, UniProt Q9C0B0, residues 30-357)
# UniProt Q9C0B0, sequence (30-357, looked up): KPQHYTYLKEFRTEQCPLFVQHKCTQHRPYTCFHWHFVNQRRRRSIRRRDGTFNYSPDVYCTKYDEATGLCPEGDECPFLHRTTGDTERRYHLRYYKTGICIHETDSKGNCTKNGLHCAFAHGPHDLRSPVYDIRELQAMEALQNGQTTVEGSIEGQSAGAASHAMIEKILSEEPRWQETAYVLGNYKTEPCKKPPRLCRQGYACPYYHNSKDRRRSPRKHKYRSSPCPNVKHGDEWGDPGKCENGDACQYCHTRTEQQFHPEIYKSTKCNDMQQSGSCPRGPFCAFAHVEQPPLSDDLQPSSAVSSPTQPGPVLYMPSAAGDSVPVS
# Setting: RNA with constant flanks, human and mouse sites, ends assumed
# Constant ends, left off below: GGGAGUUCUACAGUCCGACGAUC … CAACAGAGGAUUGAGCAUCA
Oligonucleotide,bound/input enrichment [ratio]
UUGGUCAUAUCAAACAUUAAAAAUGACCACUCUUUUAAUUGAAAUUAACUUUUAAAUGUUUAUAGGAGUAUGUGCUGUGAAGUGAUCUAAAAUUUGUAAUAUUUUUGUCAUGAACUGUAC,0.431
GCUGAAUUUGCUGAGUUAAAGACACAGAUAGAGAGACUGAGACUAGAUUACCAGCACGAAAUAGAAAGUUUACAGAGUAAACAGGACUCUGAGCGGUCUGCUCAUGCUAAAGAGAUGGAG,0.869
UAUAUUUUGGAUUUUGUUUGUGUUGAAUUUUUUAAUCAUUGUGCACAGAAGCAUCAUUGGUAGCUUUUAUAUGCAAAAUGGUCAUUUCAGAUGUAUGGUGUUUUUACACUACAAAGAAGU,0.137
GGUAGUGAACAAUGACCUCAUUUUAUUUUCUAUGUUAGUUAUUUAUUUCAAAAUUUACAUUUUAGUUUAUUUUCGUCUGUAAAGCGUAUGUUUCGCACUGCUCUUUUACUCUGAGGGUUU,339
UAUGGAAGAAAAGCUACUUGGAUAGGUGCAAGUGGGGACCAAACUUUUUUACGAAUUGAUGAAGCACUUAUUAAUUCUCAUGUACUUGCUACAUCAGAAAUUUUUGCCAGUAAACACAUA,0.274
UAGAUUGUAUCGCUAAUUUUUACUUUUUAAAAAUUCAUUUAUGUGUGUAUUGUUUGCAUGUUAGGUGUGGGUAUGUGCAGACUAGAGGACUGUGGGAAUCACUUGGAGGUAGUUAUUACA,2.65
GGACUGGAGUACCUUGCGUGCAGUUAUGUCGGCGUCGGUAGUGUCUGUCAUUUCGCGGUUCUUAGAAGAGUACUUGAGCUCCACUCCGCAGCGUCUGAAGUUGCUGGACGCGUACCUGCU,0.125
AGAGUCCAAUAAAAUCGCUGCCUCCCAGCUGUUUGGAUCACAGAGAGGUUUUUGCACUGCCAUAGGGCGCCCCCGUGAGGCGCUUCGCCCCCCACCAUGUUCCAGCGCCUCUCCAGCCUC,0.406
UGUAGUUUCUUGAUUUAUCAUUUUUCUCUUUUCUUUCUUUCCUUUAGGAAAAGCCUAAAGAUUAGGUUGUAAGAAAAACAGAAGCCAUGUUUCGAAGACCUGUGUUACAGGUAUUUCGUC,0.153
AGCAAAACAUACAAGAUUGAUUCUUGGGAGAAUGCUGAGGACUUUCUUGAGAAGCUCGCUUUCCGGACUGGGAAGUUACUAAAGGGUGGAGAGCCCGACUUGCAGACUGUGGGUAAGAUG,0.385
GCAUUGGCCCAAGCUGAACUUCUUAAGCGCCAGGAAGAACUAGAAAGAAAAGCCGCAGAAUUAGAUCGUCGGGAACGAGAAAUGCAAAACCUCAGUCAACAUGGUAGAAAAAAUAAUUGG,1.04

# Series 2 — target: CCNA1, cyclin fold, Cln2 fusion (human); technique: yeast growth competition, sequencing; sample: yeast; setting: weak parent motif; baseline: not given; direction: higher = stronger binding
# Parent: ITGB3BP docking peptide (human); MPVKRSLKLDGLL; partner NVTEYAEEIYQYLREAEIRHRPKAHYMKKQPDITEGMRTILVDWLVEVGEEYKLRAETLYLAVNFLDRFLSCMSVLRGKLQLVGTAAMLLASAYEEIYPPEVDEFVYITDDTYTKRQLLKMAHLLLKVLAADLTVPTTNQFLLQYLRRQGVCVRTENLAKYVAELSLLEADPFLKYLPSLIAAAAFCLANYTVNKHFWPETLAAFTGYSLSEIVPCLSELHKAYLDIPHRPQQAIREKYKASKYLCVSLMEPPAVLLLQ
Change,normalised enrichment score
MPVKRSLKLAGLL [D10A],-0.0171
MPVKKSLKLDGLL [R5K],-0.046
MPVKRSAKLDGLL [L7A],0.403
MPVARSLKLDGLL [K4A],0.292
MPVKRSLKADGLL [L9A],0.253
MAVKRSLKLDGLL [P2A],0.26
MPVKASAKLDGLL [R5A L7A],0.175
APVKRSLKLDGLL [M1A],0.412
MPAKRSLKLDGLL [V3A],0.483
MPVKKSLKFDGLL [R5K L9F],-0.048

# Series 3 — technique: protein-binding microarray; molecule type: double-stranded DNA, one strand shown; sample: in vitro; concentration: 250 nM; setting: 60-bp whole probe; together with: salmon DNA 0.4 mg/ml; baseline: random background probes; direction: higher = stronger binding; constant ends, left off below: GCCTAGCAC … GTCTTGATTCGCTTGACGCTGCTG
# Target: Interferon regulatory factor 7, full length, phosphomimetic (IRF7, Homo sapiens, UniProt Q92985, residues 1-503, S101K/S471D/S472D/S475D/S476D/S477D/S483D/S484D/S487D)
# Residues (chain): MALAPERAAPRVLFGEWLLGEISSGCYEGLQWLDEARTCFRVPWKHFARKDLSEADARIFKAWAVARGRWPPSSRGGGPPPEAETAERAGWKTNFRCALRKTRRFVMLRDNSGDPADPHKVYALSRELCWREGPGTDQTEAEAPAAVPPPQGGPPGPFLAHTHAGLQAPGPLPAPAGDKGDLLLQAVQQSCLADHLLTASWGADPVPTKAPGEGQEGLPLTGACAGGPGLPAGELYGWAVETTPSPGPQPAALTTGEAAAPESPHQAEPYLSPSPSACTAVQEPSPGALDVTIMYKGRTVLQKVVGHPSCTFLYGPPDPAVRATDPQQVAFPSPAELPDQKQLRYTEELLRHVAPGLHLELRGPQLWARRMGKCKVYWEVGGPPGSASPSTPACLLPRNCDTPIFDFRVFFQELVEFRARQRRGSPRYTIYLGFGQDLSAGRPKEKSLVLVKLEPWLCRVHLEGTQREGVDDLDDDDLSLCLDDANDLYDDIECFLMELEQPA
Oligonucleotide,log fluorescence [z-score]
GGTATTATTTATTGTAGCCTCGTGCTA,0.282
TTAGGTTTGGACTTTCGGTTAGTGCTA,0.845
GACGGTATCGGTATCGGGACGTGCTAG,1.38
GACGGTATCCACACTGGGGACGTGCTA,-0.312
GACGGTTTCGACACTGGGGAAGTGCTA,4.48
TTAGATTTCGGGTATCGAGTAGTGCTA,1.02
GACGGTTTGGGGTTTCGGGACGTGCTA,1.59
GTTTCTCTTTCCTTCTTGATGTGCTAG,7.94
AGTTTTTACTTTCTGAATGCGTGCTAG,1.74
TCTGTTTTTGCTTTCTTTATGTGCTAG,1.88
ATAGGTTTCGGTCTCGGTTAGTGCTAG,8.62
TCAAGTCTCATATTTATACTGTGCTAG,0.85
TTAGATTTTGGGTTTCGATTAGTGCTA,6.26
TGAAGACTTTCTTTCAAATGGTGCTAG,-0.204
TCACTTTTGGCTTTCCTACTGTGCTAG,1.15
TTAGATATGAGTATCGATTAGTGCTAG,0.786
GACGATATCTGGACTGGAGACGTGCTA,-0.333
GACGAACTGGACACTGGGGACGTGCTA,-0.492
GACGGTATCGACTTTTGGGACGTGCTA,0.125
GACGGACTGGGACTGGGGAAGTGCTAG,-0.701
GACGGTCTCCTTAGCCTGACGTGCTAG,-0.43
GTAGGTCTCCTTCTCCTTTAGTGCTAG,-0.0796
TCACTCCTCTAGGTTCTCACTGTGCTA,0.186

# Series 4 — target: CREBZF, bZIP domain (human); technique: DHFR protein complementation; sample: yeast; baseline: wild-type JUN-FOS pair; direction: higher = stronger binding
# Setting: single substitutions, most at no-binding floor
# Parent: JUN, bZIP domain (human); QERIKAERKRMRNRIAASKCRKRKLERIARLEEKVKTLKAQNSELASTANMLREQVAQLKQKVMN; partner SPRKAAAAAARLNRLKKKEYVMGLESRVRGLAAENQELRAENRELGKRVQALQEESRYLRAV
Change,binding fitness
K36A,-1.54 natural log
A46W,-1.32 natural log
L45G,-1.5 natural log
T48E,-1.52 natural log
M51A,-1.49 natural log
K36G,-1.45 natural log
T37S,-1.37 natural log
E54P,-1.31 natural log
K36C,-1.37 natural log
K39V,-1.45 natural log
T37R,-1.37 natural log
I28L,-1.39 natural log
L45Q,-1.39 natural log
I28V,-1.46 natural log
E44R,-1.47 natural log
E44Q,-1.28 natural log
K39C,-1.54 natural log
L52E,-1.49 natural log
